Results from different studies.
Compare with care: the assays were run in different laboratories.

CC(=O)c1c(C)c2cnc(Nc3ccc(C4CCN(CCS(C)(=O)=O)CC4)cn3)nc2n(C2CCCC2)c1=O
patients with platelet count decreased (HR+/HER2- advanced breast cancer patients; oral, 100 mg bid, all grades, monotherapy arm): 46.7%

N[C@@H]1c2ccccc2OC12CCN(c1cnc3c(N4CCCc5ncccc54)n[nH]c3n1)CC2
patients with serious TEAE (advanced solid tumour patients; oral, 40 mg once daily): 75%

COc1c(OCCCN2CCOCC2)ccc2c1N=C(NC(=O)c1cnc(N)nc1)N1CCN=C21
patients with adverse event (refers to: Fever; patients with advanced malignancies; intravenous, dose not given, any grade, all cohorts, together with: gemcitabine): 26%

O=C1Nc2cc3[nH]nc(-c4ccncc4)c3cc2CN1Cc1ccccc1
patients with ≥1 TEAE (CTCAE v4.03; advanced solid tumour patients; intravenous, 1.8 mg/kg, schedules 1/2): 100%

CO[C@H]1C[C@@H]2CC[C@@H](C)[C@@](O)(O2)C(=O)C(=O)N2CCCC[C@H]2C(=O)O[C@H]([C@H](C)C[C@@H]2CC[C@@H](OC(=O)NCCOCCOCCOCCOCCOCCOCCOCCOCCC(=O)N3CCc4cc(Cn5nc(-c6ccc7oc(N)nc7c6)c6c(N)ncnc65)ccc4C3)[C@H](OC)C2)C[C@@H](O)[C@H](C)/C=C(\C)[C@@H](O)[C@@H](OC)C(=O)[C@H](C)C[C@H](C)/C=C/C=C/C=C/1C
patients with AE (refers to: treatment-emergent AEs; patients with advanced solid tumours; intravenous, dose not given, grade ≥3, all doses): 0%

CCN(CCO)CCCC(C)Nc1ccnc2cc(Cl)ccc12 (stereo not shown)
patients with adverse event (refers to: Hypomagnesemia grade 1; newly diagnosed glioblastoma patients; oral, 400 mg/dose, with radiotherapy and temozolomide): 14%

Nc1nc2cc(-c3ccc4ncc(C(=O)N5CCOCC5)n4c3)ccc2o1
patients with adverse events (refers to: Hypokalemia, any cause, grade ≥3; patients with advanced solid tumours; dose not given): 0%

C=CCNc1c(O)cc2c(O)c1C[C@@H](C)C[C@H](OC)[C@H](O)[C@@H](C)/C=C(\C)[C@H](OC(N)=O)[C@@H](OC)/C=C\C=C(/C)C(=O)N2
patients with diarrhoea TEAE (unresectable or metastatic STS, GIST, other; intravenous, 400 mg/m^2): 56%

CN1CC[C@@H](c2c(O)cc(O)c3c(=O)cc(-c4ccc(C(F)(F)F)cc4Cl)oc23)[C@@H]1CO
patients with adverse event (refers to: Lymphopenia; relapsed AML; oral, 100 mg, grade 3-4, intermittent dosing): 0%

C[C@@H]1OC(=O)NN=C1c1ccc(-c2ccc(F)cc2)c(C(F)(F)F)c1
patients with blood ALP increased (patients, phase I trial; oral, 5 mg once daily, any grade TEAE): 0%
